Published values from different studies.
Lines come from different studies, so protocols differ.
T1: RNA aptamer; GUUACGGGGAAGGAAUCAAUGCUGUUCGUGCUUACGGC
T2: RNA aptamer; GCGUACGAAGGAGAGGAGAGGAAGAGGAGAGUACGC
T3: RNA aptamer del49, 5'-triphosphate, 2',3'-cyclic phosphate; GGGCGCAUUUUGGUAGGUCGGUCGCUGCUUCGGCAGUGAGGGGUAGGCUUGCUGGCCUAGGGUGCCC
T4: RNA aptamer, 3'-5' linkages; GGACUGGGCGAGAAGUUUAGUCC
T5: RNA aptamer; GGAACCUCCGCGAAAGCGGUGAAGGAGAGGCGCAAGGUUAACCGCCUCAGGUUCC
T6: RNA aptamer; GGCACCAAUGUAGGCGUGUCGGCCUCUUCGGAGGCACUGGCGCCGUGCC
T7: RNA aptamer; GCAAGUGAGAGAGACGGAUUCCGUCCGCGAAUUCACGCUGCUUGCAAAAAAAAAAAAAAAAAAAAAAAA
T8: RNA aptamer, 5'-triphosphate; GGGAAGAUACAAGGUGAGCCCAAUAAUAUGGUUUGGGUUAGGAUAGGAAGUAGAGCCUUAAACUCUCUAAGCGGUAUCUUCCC
T9: RNA aptamer (Homo sapiens); chain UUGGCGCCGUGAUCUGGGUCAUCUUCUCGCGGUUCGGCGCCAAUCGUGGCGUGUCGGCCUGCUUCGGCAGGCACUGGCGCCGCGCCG; chain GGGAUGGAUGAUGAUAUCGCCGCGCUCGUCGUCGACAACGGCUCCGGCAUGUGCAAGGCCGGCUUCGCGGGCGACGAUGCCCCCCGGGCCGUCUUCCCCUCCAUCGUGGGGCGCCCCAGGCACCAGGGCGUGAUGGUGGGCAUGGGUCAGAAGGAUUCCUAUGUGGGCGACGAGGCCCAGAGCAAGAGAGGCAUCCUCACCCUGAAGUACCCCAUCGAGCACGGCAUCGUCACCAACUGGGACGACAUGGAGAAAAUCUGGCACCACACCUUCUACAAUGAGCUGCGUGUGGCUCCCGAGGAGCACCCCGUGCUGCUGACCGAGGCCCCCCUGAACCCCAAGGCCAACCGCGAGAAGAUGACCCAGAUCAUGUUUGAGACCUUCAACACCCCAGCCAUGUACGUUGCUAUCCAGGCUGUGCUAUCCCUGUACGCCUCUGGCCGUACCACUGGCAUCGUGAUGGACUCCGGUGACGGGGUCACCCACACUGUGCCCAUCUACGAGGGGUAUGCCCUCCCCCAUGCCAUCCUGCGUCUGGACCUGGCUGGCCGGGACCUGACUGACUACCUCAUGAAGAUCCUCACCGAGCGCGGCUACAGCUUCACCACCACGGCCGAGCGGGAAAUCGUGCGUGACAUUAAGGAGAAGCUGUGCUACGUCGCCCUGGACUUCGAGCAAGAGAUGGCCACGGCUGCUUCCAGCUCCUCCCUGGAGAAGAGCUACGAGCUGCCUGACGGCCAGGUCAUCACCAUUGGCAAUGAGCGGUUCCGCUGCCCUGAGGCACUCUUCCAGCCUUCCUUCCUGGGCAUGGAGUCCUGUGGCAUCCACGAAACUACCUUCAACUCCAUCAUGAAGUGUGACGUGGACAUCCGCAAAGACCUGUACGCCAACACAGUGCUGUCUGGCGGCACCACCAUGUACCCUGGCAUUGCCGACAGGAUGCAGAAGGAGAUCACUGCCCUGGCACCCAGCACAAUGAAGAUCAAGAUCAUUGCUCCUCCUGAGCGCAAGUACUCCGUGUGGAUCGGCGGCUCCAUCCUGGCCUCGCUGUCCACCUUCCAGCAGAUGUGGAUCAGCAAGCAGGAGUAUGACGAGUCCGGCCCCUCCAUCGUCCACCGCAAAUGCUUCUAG
T10: RNA aptamer, triplex fused, Baby Spinach; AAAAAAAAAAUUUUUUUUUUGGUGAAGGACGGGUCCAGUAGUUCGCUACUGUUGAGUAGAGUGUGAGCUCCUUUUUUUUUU

Under binding, `CN1C=CC(=Cc2sc3ccccc3[n+]2CC(=O)NCCOCCOCCOCCNC(=O)CCCC[C@@H]2SC[C@@H]3NC(=O)N[C@@H]32)c2ccccc21` is recorded as “binds” (T1, RNA aptamer; fluorescence light-up; 10 µM dye).
With `CN1C(=Cc2cc[n+](C)c3ccccc23)Sc2ccccc21` the Kd was 5.9 nM (T2, RNA aptamer; fluorescence titration; apparent).
`Nc1nc2c(ncn2[C@@H]2O[C@H](COP(=O)(O)OP(=O)(O)OP(=O)(O)O)[C@@H](O)[C@H]2O)c(=O)[nH]1` has a Kd of 9.1 nM (T3, RNA aptamer del49, 5'-triphosphate, 2',3'-cyclic phosphate; ITC).
The Kd of `NC[C@@H]1O[C@H](O[C@H]2[C@@H](O)[C@H](O[C@@H]3[C@@H](O)[C@H](N)C[C@H](N)[C@H]3O[C@H]3O[C@H](CN)[C@@H](O)[C@H](O)[C@H]3N)O[C@@H]2CO)[C@H](N)[C@@H](O)[C@@H]1O` is reported as 1 nM (T4, RNA aptamer, 3'-5' linkages; ITC).
For `CN(C)c1ccc2c(-c3ccc(C(=O)O)cc3C(=O)[O-])c3ccc(=[N+](C)C)cc-3oc2c1`, the Kd was 70 nM (T5, RNA aptamer; ITC).
`CN(CCO)c1ccc(/C=C(\C#N)c2ccc(C#N)cc2)cc1` has a Kd of 1920 nM (T6, RNA aptamer; fluorescence titration, Hill fit; apparent).
`Fc1ccc(Nc2nc(NCc3ncccn3)nc(Nc3ccccc3)n2)cc1` has a Kd of 7.7 nM (T7, RNA aptamer; SPR; 25 °C).
The Kd of `CC1=N/C(=C\c2cc(F)c(O)c(F)c2)C(=O)N1CC(F)(F)F` is reported as 45 nM (T8, RNA aptamer, 5'-triphosphate; not stated; not measured here).
For `CN(CCO)c1cc2sc(/C=C(\C#N)c3ccc(C#N)cc3)cc2s1`, binding read “binds” (T9, RNA aptamer (Homo sapiens); fluorescence activation).
The Kd of `CC1=N/C(=C\c2cc(F)c(O)c(F)c2)C(=O)N1C` is reported as 711 nM (T10, RNA aptamer, triplex fused, Baby Spinach; fluorescence titration; pH 7, with: DFHBI 0.02–).

Excerpt of the above:
`Nc1nc2c(ncn2[C@@H]2O[C@H](COP(=O)(O)OP(=O)(O)OP(=O)(O)O)[C@@H](O)[C@H]2O)c(=O)[nH]1` has a Kd of 9.1 nM (T3, RNA aptamer del49, 5'-triphosphate, 2',3'-cyclic phosphate; ITC).
The Kd of `NC[C@@H]1O[C@H](O[C@H]2[C@@H](O)[C@H](O[C@@H]3[C@@H](O)[C@H](N)C[C@H](N)[C@H]3O[C@H]3O[C@H](CN)[C@@H](O)[C@H](O)[C@H]3N)O[C@@H]2CO)[C@H](N)[C@@H](O)[C@@H]1O` is reported as 1 nM (T4, RNA aptamer, 3'-5' linkages; ITC).
